Measured values from different studies.
Compare with care: the assays were run in different laboratories. ± gives the spread as reported. ≈ marks a conversion by molar mass, not a printed value.
OPRK1: Kappa-type opioid receptor (OPRK1, Homo sapiens, UniProt P41145)
OPRL1: Nociceptin receptor (OPRL1, Homo sapiens, UniProt P41146)
OPRM1: Mu-type opioid receptor (OPRM1, Homo sapiens, UniProt P35372)
CHRNA7: Neuronal acetylcholine receptor subunit alpha-7 (CHRNA7, Homo sapiens, UniProt P36544)
Oprm1: Mu-type opioid receptor (Oprm1, Rattus norvegicus, UniProt P33535)
FPR1 N192K: fMet-Leu-Phe receptor (FPR1, Homo sapiens, UniProt P21462, N192K)
OPRD1: Delta-type opioid receptor (OPRD1, Homo sapiens, UniProt P41143)

Amino acid sequences for entries named in this document (tags omitted). Residues count along the entry.
UniProt P41146, whole entry: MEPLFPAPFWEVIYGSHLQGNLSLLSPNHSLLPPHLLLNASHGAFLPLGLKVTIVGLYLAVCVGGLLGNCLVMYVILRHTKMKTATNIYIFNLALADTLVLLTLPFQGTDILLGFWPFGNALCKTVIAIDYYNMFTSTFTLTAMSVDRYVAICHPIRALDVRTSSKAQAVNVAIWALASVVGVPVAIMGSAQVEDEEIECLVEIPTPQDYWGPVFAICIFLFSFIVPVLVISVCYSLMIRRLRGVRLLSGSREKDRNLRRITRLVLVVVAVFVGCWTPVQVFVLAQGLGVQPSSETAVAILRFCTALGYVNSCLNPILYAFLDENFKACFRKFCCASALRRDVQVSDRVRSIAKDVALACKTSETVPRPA
UniProt P35372, whole entry: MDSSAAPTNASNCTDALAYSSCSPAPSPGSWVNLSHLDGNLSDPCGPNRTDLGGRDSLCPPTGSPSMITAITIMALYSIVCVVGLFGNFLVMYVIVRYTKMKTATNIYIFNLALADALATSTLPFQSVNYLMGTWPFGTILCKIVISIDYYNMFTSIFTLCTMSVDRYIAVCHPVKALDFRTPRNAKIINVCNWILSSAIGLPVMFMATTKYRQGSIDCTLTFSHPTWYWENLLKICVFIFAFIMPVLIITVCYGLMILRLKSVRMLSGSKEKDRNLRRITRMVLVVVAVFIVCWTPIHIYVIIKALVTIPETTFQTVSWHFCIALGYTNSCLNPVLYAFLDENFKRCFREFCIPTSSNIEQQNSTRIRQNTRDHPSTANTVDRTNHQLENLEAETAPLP
UniProt P36544, 23-502 limits assumed: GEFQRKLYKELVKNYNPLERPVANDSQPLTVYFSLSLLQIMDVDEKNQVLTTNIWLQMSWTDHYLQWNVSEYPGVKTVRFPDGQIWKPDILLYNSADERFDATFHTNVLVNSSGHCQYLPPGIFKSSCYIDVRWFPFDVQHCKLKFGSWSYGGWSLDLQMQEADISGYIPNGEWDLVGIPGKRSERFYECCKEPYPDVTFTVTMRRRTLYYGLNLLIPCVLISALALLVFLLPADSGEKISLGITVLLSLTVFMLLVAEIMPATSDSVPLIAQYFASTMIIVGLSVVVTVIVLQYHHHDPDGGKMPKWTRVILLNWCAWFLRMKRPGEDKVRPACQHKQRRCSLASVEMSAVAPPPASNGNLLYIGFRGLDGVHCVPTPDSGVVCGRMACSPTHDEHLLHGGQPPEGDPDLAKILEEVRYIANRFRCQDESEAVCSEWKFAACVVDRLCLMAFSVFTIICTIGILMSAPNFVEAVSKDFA
UniProt P33535, whole entry: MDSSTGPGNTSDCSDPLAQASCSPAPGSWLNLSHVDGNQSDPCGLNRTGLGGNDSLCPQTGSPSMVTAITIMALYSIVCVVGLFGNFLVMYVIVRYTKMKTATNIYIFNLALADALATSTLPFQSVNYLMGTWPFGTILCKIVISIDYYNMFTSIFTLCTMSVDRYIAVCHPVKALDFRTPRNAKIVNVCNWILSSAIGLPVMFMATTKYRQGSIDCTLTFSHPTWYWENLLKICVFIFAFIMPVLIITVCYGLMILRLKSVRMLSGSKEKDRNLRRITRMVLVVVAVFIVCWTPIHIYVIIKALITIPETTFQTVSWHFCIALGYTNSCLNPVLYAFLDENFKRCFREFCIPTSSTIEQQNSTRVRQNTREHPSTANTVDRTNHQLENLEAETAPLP
UniProt P21462, whole entry N192K: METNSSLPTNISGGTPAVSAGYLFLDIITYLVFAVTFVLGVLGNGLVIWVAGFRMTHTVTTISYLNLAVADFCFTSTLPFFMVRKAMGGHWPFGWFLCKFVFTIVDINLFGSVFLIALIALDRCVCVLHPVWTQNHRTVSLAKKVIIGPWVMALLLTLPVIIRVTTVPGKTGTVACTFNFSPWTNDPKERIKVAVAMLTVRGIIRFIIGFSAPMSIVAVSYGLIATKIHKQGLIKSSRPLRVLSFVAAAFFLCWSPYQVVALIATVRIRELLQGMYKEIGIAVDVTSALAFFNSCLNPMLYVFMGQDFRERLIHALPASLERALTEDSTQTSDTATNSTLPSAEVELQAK
UniProt P41143, whole entry: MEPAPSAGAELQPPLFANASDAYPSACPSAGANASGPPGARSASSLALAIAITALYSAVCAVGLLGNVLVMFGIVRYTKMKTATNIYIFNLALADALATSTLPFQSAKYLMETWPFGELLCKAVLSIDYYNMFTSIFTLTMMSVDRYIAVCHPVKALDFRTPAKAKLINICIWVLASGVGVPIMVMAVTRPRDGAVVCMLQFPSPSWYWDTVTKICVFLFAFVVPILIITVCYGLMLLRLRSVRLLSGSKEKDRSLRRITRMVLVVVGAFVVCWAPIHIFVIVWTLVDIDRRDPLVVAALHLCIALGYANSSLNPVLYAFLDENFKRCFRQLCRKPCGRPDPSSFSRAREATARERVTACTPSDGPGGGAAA
UniProt P21917, whole entry: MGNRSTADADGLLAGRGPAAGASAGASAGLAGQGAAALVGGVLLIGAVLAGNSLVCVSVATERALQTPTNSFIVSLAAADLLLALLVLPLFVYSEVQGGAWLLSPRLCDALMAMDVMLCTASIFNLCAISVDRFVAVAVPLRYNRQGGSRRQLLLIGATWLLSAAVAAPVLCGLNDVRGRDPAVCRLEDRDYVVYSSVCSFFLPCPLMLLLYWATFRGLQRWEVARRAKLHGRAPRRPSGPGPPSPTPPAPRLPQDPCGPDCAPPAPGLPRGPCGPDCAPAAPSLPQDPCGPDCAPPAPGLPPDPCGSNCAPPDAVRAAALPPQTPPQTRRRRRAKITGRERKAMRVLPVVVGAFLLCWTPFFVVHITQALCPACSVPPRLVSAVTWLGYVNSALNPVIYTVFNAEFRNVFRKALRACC
UniProt Q51507, whole entry: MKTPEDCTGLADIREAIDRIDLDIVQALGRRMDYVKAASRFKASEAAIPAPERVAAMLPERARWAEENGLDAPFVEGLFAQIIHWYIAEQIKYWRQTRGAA
UniProt Q16816, whole entry: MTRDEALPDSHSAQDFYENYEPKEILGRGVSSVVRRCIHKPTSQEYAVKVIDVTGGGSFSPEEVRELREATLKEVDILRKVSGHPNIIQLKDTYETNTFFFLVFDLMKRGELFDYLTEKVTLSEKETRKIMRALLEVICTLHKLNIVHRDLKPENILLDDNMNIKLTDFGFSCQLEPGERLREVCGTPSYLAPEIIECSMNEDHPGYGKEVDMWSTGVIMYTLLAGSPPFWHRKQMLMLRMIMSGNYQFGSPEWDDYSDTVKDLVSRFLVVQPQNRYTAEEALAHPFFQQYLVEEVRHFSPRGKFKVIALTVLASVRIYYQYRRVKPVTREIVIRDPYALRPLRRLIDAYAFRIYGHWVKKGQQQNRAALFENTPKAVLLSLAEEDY
UniProt P25100, whole entry: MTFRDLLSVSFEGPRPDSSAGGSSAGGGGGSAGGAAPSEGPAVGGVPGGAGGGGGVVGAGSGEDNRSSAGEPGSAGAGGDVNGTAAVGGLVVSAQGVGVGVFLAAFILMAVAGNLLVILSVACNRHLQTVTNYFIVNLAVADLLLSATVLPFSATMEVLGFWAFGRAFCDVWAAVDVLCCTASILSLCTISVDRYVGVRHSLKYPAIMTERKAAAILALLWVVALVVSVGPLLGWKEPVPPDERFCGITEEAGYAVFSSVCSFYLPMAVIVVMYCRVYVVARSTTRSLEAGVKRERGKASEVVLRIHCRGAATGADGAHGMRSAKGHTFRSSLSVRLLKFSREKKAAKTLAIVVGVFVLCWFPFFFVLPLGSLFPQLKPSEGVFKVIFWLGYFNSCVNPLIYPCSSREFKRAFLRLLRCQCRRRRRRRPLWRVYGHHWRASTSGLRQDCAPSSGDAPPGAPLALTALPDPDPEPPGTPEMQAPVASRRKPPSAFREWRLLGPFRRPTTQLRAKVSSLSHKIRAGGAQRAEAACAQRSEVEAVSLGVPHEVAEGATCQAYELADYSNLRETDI
UniProt P71968, 1-258: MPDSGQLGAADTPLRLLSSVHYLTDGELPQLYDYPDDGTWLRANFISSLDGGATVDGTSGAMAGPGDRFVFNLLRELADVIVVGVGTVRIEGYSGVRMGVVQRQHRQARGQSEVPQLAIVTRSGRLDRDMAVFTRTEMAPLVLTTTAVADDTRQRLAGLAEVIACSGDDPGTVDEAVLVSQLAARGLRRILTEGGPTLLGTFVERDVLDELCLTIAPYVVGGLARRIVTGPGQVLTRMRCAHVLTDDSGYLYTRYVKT
UniProt A0A4X1VEU5, 29-602 limits assumed: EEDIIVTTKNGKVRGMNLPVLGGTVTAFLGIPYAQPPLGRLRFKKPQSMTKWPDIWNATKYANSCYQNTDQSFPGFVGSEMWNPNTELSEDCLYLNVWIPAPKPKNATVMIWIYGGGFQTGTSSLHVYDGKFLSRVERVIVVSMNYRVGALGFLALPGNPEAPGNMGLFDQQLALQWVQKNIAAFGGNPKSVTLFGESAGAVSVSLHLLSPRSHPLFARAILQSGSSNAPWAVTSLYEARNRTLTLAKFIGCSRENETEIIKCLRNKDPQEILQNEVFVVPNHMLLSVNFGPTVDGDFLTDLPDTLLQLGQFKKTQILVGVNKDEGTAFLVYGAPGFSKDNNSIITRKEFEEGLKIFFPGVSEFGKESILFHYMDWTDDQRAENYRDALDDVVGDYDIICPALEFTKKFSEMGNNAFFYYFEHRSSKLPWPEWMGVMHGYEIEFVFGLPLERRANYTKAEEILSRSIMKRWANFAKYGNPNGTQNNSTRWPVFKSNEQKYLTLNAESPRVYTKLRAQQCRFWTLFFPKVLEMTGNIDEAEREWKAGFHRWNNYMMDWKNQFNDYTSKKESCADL
UniProt P22303, whole entry, looked up: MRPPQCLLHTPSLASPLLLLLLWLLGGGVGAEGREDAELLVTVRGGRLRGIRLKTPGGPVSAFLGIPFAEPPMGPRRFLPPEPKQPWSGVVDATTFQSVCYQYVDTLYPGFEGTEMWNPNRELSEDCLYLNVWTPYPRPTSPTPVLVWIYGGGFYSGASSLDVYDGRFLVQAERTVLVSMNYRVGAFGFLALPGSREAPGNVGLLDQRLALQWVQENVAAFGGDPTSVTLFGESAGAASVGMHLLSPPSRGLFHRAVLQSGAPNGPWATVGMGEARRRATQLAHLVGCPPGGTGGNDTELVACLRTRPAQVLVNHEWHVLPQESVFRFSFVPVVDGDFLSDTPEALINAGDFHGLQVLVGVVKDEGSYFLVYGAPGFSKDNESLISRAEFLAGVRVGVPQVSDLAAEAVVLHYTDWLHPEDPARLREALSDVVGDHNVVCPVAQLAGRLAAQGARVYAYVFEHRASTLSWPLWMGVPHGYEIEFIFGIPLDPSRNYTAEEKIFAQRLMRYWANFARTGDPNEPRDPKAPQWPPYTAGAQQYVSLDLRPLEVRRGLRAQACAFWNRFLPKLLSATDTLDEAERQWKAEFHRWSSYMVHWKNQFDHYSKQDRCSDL

COC(=O)[C@@H]1C[C@H](OC(=O)CSC#N)C(=O)[C@H]2[C@@]1(C)CC[C@H]1C(=O)O[C@H](c3ccoc3)C[C@]21C  Ki (OPRK1; radioligand competition; with: [3H]U69593): 0.00059 ± 0.00021 µM
CCN1CCN(Cc2ccc(NC(=O)c3ccc(C)c(/C=C/c4cnc5[nH]ccc5c4OC)c3)cc2C(F)(F)F)CC1  log2 fold change (human ABL1 G2A; kinase-CDC37 interaction, inhibitor; human cells; 5 µM; reference: vehicle): -0.419
O=c1cc(CNCCCOc2cccnc2)[nH]c2ccc(F)cc12  Ki (DRD4 (Homo sapiens, UniProt P21917); radioligand competition; with: [3H]N-methylspiperone): 0.03 µM
O=[N+]([O-])c1cc(S(=O)(=O)c2cc([N+](=O)[O-])c(O)c([N+](=O)[O-])c2)cc([N+](=O)[O-])c1O  Ki (pchB (Pseudomonas aeruginosa, UniProt Q51507); salicylate production, inhibitor, salicylate fluorescence): 0.08 ± 0.008 µM
CO[C@]12CC[C@@]3(C[C@@H]1[C@](C)(O)CC(C)(C)c1ccccc1)[C@H]1Cc4ccc(O)c5c4[C@@]3(CCN1CC1CC1)[C@H]2O5  Ki (OPRL1; radioligand binding; CHO; with: [3H]N/OFQ): 0.022 ± 0.00055 µM
CO[C@]12CC[C@@]3(C[C@@H]1[C@](C)(O)c1ccccc1)[C@H]1Cc4ccc(O)c5c4[C@@]3(CCN1CC1CC1)[C@H]2O5  Ki (OPRM1; binding, radioligand displacement; CHO; with: [3H]DAMGO): 0.00071 ± 0.00017 µM
CCCCCCC1c2ccc(O)cc2Oc2cc(O)ccc21  MIC (Pseudomonas aeruginosa; MDR clinical isolate): > 373 µg/mL
CC#C/C(=N\OC[C@H]1COCCN1)c1ccc2ncnc(Nc3ccc(OCc4cccc(F)c4)c(Cl)c3)c2c1  inhibition (PHKG1 (Homo sapiens, UniProt Q16816); kinase activity; 10 µM): 6.4%
CO[C@]12CC[C@@]3(C[C@@H]1[C@@](C)(O)C(C)(C)C)[C@H]1Cc4c(Cl)cc(O)c5c4[C@@]3(CCN1CC1CC1)[C@H]2O5  Ki (OPRL1; radioligand binding; CHO; with: [3H]N/OFQ): 0.0678 ± 0.02 µM
CCCN1CCN(c2ccc3c(c2)C2CC3CCN2C(=O)OCc2ccccc2)CC1 (stereo not drawn)  Ki (ADRA1D (Homo sapiens, UniProt P25100); binding, radioligand binding): 1.91 µM
CCN(CC)C(=O)Oc1ccc(C(=O)Nc2cccc3cc[nH]c23)cc1  current response (CHRNA7; modulator, two-electrode voltage clamp; Xenopus oocytes; 20 µM, with: 300 µM acetylcholine; reference: agonist alone): 89.6 ± 4.2%
CSc1nc(Cl)cc(Sc2nnc(-c3cc(C(F)(F)F)cc(C(F)(F)F)c3)[nH]2)n1  MIC (Escherichia coli; MC4100; 37 °C, with: PMBN 25 µg/mL): 2.6 µg/mL (≈ 5.51 µM)
CCc1nc(N)nc(N)c1C#CCc1cc(OC)cc(-c2ccc(C(=O)O)cc2)c1  Ki (Riboflavin biosynthesis protein RibD (Mycobacterium tuberculosis, UniProt P71968); inhibitor; with: NADPH 50 µM): 1.17 ± 0.14 µM
Nc1c2c(nc3ccccc13)CCCC2  Ki (Butyrylcholinesterase (Sus scrofa, UniProt A0A4X1VEU5); enzyme activity, inhibitor): 0.00043 ± 7e-05 µM
CC[C@@](O)(c1ccccc1)[C@H]1C[C@@]23C=C[C@]1(OC)[C@@H]1Oc4c(O)ccc5c4[C@@]12CCN(CC1CC1)[C@@H]3C5  Ki (OPRK1; binding, radioligand displacement; CHO; with: [3H]U-69593): 0.00095 ± 0.00026 µM
COC(=O)[C@@H]1C[C@H](OC(C)=O)C(=O)[C@H]2[C@@]1(C)CC[C@H]1C(=O)O[C@H](c3ccoc3)C[C@]21C  Ki (Oprm1; radioligand binding; CHO membranes; with: [3H]diprenorphine): > 1 µM
CO[C@]12CC[C@@]3(C[C@@H]1[C@@H](O)c1ccccc1)[C@H]1Cc4ccc(O)c5c4[C@@]3(CCN1CC1CC1)[C@H]2O5  Ki (OPRM1; binding, radioligand displacement; CHO; with: [3H]DAMGO): 0.00082 ± 0.0003 µM
CC[C@H](C)[C@H](NC(=O)[C@H](Cc1c[nH]c2ccccc12)NC(=O)[C@H](CCC(N)=O)NC(=O)[C@H](CCCNC(=N)N)NC(=O)[C@H](Cc1c[nH]c2ccccc12)NC(=O)CNC(=O)[C@@H](NC(=O)[C@H](Cc1c[nH]c2ccccc12)NC(=O)[C@H](Cc1c[nH]c2ccccc12)NC(=O)[C@H](CC(N)=O)NC(=O)[C@H](CC(=O)O)NC(=O)[C@@H](N)CC(N)=O)[C@@H](C)O)C(=O)O  Ki (FPR1 N192K; binding, competition binding; 4 °C, with: formyl-Nle-Leu-Phe-Nle-Tyr-Lys-FITC 0.3 nM): 1.2 ± 0.09 µM
O=C(C1CC1)N1CC2CC(C1)N2  Ki (CHRNA7; binding; membranes; with: [3H]epibatidine): 0.62 ± 0.095 µM
C[C@H](Cc1ccc(O)c(O)c1)[C@@H](C)Cc1ccc(O)c(O)c1  amount in epidermis (human skin; 3% solution, 8 h, skin UV-treated 30 min): 12.7 ± 0.88 µg
CO[C@]12CC[C@@]3(C[C@@H]1[C@@](C)(O)C(C)(C)C)[C@H]1Cc4cc(Br)c(O)c5c4[C@@]3(CCN1CC1CC1)[C@H]2O5  Ki (OPRD1; radioligand binding; CHO; with: [3H]Cl-DPDPE): 0.00867 ± 0.00081 µM
dimethyl sulfoxide  Ki (ACHE (Homo sapiens, UniProt P22303); Ellman; pH 7.4, 22 °C, with: acetylthiocholine): 45000 ± 5000 µM
CO[C@]12CC[C@@]3(C[C@@H]1[C@@](C)(O)c1ccncc1)[C@H]1Cc4ccc(O)c5c4[C@@]3(CCN1CC1CC1)[C@H]2O5  Ki (Oprm1; binding, radioligand displacement; C6 rat glioma; with: [3H]diprenorphine): 0.00016 ± 4e-05 µM
CO[C@]12CC[C@@]3(C[C@@H]1[C@](C)(O)CC(C)(C)C)[C@H]1Cc4ccc(O)c5c4[C@@]3(CCN1CC1CC1)[C@H]2O5  Ki (OPRM1; radioligand binding; CHO; with: [3H]DAMGO): 0.00295 ± 0.00065 µM
CO[C@]12CC[C@@]3(C[C@@H]1[C@](C)(O)c1cccs1)[C@H]1Cc4ccc(O)c5c4[C@@]3(CCN1CC1CC1)[C@H]2O5  Ki (Oprm1; binding, radioligand displacement; C6 rat glioma; with: [3H]diprenorphine): 0.0006 ± 0.00014 µM
CC[C@H](C)[C@H](NC(=O)[C@H](Cc1ccc(O)cc1)NC(=O)[C@H](CCC(N)=O)NC(=O)[C@@H](N)CCC(=O)O)C(=O)N[C@@H](CCCCN)C(=O)N[C@@H](Cc1c[nH]c2ccccc12)C(=O)N1CCC[C@H]1C(=O)N[C@@H](Cc1c[nH]c2ccccc12)C(=O)N[C@@H](Cc1ccc(O)cc1)C(=O)N[C@H](C(=O)N[C@@H](Cc1c[nH]c2ccccc12)C(=O)N[C@@H](CC(C)C)C(=O)O)C(C)C  Ki (FPR1 N192K; binding, competition binding; 4 °C, with: formyl-Nle-Leu-Phe-Nle-Tyr-Lys-FITC 0.3 nM): 2.4 ± 0.17 µM
CC[C@](O)([C@H]1C[C@@]23CC[C@]1(OC)[C@@H]1Oc4c(O)ccc5c4[C@@]12CCN(CC1CC1)[C@@H]3C5)C(C)(C)C  Ki (OPRL1; binding, radioligand displacement; CHO; with: [3H]N/OFQ): 0.105 ± 0.004 µM
CO[C@]12CC[C@@]3(C[C@@H]1[C@@](C)(O)C(C)(C)C)[C@H]1Cc4c(Br)cc(O)c5c4[C@@]3(CCN1CC1CC1)[C@H]2O5  Ki (OPRD1; radioligand binding; CHO; with: [3H]Cl-DPDPE): 0.00679 ± 0.00099 µM
CO[C@]12C=C[C@@]3(C[C@@H]1[C@H](O)c1ccccc1)[C@H]1Cc4ccc(O)c5c4[C@@]3(CCN1CC1CC1)[C@H]2O5  Ki (OPRD1; binding, radioligand displacement; CHO; with: [3H]DPDPE): 0.0032 ± 0.00048 µM
CO[C@]12CC[C@@]3(C[C@@H]1[C@@](C)(O)c1ccc(C(C)(C)C)cc1)[C@H]1Cc4ccc(O)c5c4[C@@]3(CCN1CC1CC1)[C@H]2O5  Ki (OPRL1; radioligand binding; CHO; with: [3H]N/OFQ): 0.133 ± 0.0082 µM

Repeated from above:
dimethyl sulfoxide  Ki (ACHE (Homo sapiens, UniProt P22303); Ellman; pH 7.4, 22 °C, with: acetylthiocholine): 45000 ± 5000 µM
C[C@H](Cc1ccc(O)c(O)c1)[C@@H](C)Cc1ccc(O)c(O)c1  amount in epidermis (human skin; 3% solution, 8 h, skin UV-treated 30 min): 12.7 ± 0.88 µg
CO[C@]12CC[C@@]3(C[C@@H]1[C@@](C)(O)c1ccc(C(C)(C)C)cc1)[C@H]1Cc4ccc(O)c5c4[C@@]3(CCN1CC1CC1)[C@H]2O5  Ki (OPRL1; radioligand binding; CHO; with: [3H]N/OFQ): 0.133 ± 0.0082 µM
CO[C@]12CC[C@@]3(C[C@@H]1[C@@H](O)c1ccccc1)[C@H]1Cc4ccc(O)c5c4[C@@]3(CCN1CC1CC1)[C@H]2O5  Ki (OPRM1; binding, radioligand displacement; CHO; with: [3H]DAMGO): 0.00082 ± 0.0003 µM
Nc1c2c(nc3ccccc13)CCCC2  Ki (Butyrylcholinesterase (Sus scrofa, UniProt A0A4X1VEU5); enzyme activity, inhibitor): 0.00043 ± 7e-05 µM
